Published values pooled from the literature.
Numbered parts are unrelated; each lists some results of a single study.
Chain of UniProt O95747 (whole entry, looked up): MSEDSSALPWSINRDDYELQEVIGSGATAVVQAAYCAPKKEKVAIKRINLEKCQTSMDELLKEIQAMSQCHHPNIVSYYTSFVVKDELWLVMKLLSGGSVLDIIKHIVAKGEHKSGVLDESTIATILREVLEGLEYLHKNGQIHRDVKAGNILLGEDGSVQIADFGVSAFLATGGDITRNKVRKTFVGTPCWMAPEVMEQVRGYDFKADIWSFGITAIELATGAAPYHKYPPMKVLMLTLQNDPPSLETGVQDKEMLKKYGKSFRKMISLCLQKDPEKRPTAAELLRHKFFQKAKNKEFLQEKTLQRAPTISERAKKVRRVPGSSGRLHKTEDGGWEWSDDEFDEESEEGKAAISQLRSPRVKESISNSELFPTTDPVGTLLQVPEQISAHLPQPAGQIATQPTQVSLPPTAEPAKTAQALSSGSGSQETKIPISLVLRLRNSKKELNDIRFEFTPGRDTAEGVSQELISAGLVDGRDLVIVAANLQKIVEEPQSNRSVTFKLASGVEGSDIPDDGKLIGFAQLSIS
Chain of UniProt P27448 (whole entry, looked up): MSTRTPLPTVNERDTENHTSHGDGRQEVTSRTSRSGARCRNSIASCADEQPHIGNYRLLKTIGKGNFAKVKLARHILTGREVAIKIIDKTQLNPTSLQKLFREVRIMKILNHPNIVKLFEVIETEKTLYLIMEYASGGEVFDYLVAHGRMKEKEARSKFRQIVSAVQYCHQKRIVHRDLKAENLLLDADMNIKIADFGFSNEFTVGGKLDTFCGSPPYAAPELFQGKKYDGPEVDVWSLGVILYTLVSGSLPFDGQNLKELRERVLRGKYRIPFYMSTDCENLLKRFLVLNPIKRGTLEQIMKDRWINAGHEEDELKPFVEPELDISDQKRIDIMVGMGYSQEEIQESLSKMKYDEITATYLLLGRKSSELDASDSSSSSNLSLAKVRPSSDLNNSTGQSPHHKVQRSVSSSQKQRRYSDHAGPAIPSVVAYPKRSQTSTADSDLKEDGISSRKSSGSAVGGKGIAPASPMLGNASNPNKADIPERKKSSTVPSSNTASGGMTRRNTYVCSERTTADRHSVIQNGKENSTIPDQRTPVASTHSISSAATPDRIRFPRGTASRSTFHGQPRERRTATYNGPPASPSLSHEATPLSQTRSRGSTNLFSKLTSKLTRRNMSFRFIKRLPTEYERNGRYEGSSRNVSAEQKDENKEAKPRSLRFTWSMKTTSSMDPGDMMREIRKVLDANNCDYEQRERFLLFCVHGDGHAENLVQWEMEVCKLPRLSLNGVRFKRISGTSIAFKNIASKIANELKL
Chain of UniProt Q8N5S9 (whole entry, looked up): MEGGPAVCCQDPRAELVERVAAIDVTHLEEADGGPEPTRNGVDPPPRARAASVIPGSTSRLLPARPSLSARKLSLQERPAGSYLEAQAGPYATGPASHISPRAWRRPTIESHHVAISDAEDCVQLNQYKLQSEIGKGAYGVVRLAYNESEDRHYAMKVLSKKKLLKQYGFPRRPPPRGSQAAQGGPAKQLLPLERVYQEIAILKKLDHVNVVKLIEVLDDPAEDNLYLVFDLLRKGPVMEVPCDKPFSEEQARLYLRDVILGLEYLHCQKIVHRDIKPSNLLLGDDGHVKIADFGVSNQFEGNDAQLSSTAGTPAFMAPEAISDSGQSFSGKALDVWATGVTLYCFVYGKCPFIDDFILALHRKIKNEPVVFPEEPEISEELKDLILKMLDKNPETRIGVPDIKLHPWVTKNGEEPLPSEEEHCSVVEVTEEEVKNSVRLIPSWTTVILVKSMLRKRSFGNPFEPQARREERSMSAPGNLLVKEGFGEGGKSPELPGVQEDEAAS
Chain of UniProt Q16816 (whole entry, looked up): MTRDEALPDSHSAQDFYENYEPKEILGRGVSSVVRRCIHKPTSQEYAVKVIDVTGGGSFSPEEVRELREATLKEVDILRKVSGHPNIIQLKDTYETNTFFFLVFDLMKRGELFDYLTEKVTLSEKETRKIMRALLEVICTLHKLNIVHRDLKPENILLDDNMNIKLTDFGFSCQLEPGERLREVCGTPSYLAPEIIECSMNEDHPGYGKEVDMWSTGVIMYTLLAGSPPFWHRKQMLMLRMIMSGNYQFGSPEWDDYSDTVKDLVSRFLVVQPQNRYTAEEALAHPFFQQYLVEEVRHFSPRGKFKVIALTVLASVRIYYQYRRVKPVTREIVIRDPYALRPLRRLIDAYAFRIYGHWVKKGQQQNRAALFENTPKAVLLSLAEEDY
Chain of UniProt P24723 (whole entry, looked up): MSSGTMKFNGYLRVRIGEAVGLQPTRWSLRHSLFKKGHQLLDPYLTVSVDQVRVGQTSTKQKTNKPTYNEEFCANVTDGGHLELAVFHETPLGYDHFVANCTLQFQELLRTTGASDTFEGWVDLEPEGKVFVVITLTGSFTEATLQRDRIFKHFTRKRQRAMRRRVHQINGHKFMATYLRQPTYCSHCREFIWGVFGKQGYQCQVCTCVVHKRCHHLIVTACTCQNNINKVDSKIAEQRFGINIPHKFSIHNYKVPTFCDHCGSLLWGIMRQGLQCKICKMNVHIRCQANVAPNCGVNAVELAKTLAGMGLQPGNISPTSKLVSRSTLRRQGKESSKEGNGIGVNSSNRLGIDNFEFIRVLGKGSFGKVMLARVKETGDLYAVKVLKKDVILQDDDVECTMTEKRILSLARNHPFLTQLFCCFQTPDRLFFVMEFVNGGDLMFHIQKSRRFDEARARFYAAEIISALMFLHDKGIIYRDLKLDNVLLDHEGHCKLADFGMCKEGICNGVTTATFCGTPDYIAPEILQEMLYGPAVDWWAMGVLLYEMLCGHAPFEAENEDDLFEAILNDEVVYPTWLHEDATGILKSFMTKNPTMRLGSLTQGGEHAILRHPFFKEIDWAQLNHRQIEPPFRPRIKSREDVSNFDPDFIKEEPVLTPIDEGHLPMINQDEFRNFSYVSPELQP
Chain of UniProt Q9BXA7 (whole entry, looked up): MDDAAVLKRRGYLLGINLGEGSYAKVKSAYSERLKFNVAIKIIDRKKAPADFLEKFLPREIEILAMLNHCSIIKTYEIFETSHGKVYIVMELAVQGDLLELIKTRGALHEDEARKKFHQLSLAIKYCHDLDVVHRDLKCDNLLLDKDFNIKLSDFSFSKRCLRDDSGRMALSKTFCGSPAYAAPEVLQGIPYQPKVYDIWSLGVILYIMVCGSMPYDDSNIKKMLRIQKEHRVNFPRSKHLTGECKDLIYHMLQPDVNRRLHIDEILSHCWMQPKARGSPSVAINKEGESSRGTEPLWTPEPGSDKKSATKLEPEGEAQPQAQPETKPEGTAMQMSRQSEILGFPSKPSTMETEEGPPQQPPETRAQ

Block 1
Target: Insulin receptor-related protein (INSRR, Homo sapiens, UniProt P14616)
Chain of UniProt P14616 (whole entry, looked up): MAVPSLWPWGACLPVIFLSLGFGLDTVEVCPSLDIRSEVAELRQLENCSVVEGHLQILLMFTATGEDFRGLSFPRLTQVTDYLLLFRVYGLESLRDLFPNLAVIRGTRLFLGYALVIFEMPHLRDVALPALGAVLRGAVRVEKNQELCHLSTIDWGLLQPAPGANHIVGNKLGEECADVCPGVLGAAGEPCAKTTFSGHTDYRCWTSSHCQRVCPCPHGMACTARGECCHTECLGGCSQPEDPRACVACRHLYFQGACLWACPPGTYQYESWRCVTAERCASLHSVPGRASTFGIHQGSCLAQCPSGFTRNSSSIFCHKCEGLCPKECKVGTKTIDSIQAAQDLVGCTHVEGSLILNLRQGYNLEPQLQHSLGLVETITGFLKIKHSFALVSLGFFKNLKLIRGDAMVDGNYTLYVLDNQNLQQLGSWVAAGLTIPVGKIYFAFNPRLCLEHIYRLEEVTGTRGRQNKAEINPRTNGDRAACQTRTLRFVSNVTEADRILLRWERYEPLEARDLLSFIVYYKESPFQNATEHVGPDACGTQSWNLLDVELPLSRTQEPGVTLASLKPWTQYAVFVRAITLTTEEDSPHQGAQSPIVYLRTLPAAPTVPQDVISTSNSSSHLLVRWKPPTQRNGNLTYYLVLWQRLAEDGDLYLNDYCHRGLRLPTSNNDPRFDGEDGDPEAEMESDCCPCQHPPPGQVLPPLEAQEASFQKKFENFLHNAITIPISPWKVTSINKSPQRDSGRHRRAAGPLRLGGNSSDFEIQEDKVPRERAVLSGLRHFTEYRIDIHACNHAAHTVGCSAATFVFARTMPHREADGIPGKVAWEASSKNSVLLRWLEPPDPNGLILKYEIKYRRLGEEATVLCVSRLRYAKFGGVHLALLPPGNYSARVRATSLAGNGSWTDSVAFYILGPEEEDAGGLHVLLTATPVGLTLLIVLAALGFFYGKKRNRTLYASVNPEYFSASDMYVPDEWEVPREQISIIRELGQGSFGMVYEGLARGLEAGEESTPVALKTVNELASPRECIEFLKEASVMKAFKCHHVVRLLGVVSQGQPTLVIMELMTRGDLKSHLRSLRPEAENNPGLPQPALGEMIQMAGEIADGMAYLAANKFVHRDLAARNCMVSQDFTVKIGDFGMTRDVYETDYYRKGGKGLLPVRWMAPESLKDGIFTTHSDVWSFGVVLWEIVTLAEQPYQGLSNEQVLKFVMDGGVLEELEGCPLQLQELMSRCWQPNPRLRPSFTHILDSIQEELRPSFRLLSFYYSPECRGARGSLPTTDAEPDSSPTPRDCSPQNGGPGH
Effect on: enzyme activity
Mode: inhibitor
Tested at: 0.5 µM
Reference: control
| SMILES | remaining activity [%] |
| --- | --- |
| O=C(c1ccccc1)c1ccc(N2CCOCC2)cc1O | 97.6 |
| COc1cc2c(Nc3ccc(Br)cc3F)ncnc2cc1OCC1CCN(C)CC1 | 105 |
| Nc1nc(Nc2ccc(S(N)(=O)=O)cc2)nn1C(=S)Nc1c(F)cccc1F | 86.5 |
| O=Nc1c(-c2c(O)[nH]c3ccccc23)[nH]c2ccccc12 | 35.7 |
| CCN(CC)CCCCN1c2ccccc2Oc2ccc(Cl)cc21 | 102 |
| FC(F)(F)c1ccc(/C=C/c2nc(COc3ccc(CCCCn4ccnn4)cc3)co2)cc1 | 101 |
| Clc1ccc(Nc2nnc(Cc3ccncc3)c3ccccc23)cc1 | 93.5 |
| CCCCc1c(-c2ccc(O)cc2)[nH]c2nccnc12 | 86.6 |

Block 2
Structure (SMILES): CC(C)n1cnc(-c2ccc(F)cc2)c1-c1ncc(C(=O)Nc2ccc(N3CCN(C)CC3)cc2)[nH]1
Technique: phase 2a trial
Host: idiopathic pulmonary fibrosis patients
| measured | dose | setting | adverse event incidence [%] |
| --- | --- | --- | --- |
| drug eruption | 60 mg once daily | grade 5 | 0 |
| proteinuria | dose not given | grade 3, all arms pooled | 0 |
| arthritis | 60 mg once daily | grade 3 | 0 |
| appendicitis | 30 mg once daily | grade 5 | 0 |
| immunoglobulins increased | 30 mg once daily | grade 1 | 0 |
| drug eruption | 30 mg once daily | grade 4 | 0 |
| weight decreased | dose not given | grade 5, all arms pooled | 0 |
| synovitis | 60 mg once daily | grade 3 | 0 |
| ventricular extrasystoles | 30 mg once daily | grade 4 | 0 |
| immunoglobulins increased | 60 mg once daily | grade 3 | 0 |
| hydroxybutyrate dehydrogenase increased | dose not given | grade 4, all arms pooled | 0 |
| drug eruption | dose not given | grade 1, all arms pooled | 0 |

Block 3
Host: human
Sample: microsomes or S9
Tested at: 2 µM
Time: 0.5 h
| SMILES | remaining compound [%] |
| --- | --- |
| Cc1cc(CO)cc(Oc2nc(Cl)nc(Cl)c2C(C)C)c1 | 22.5 |
| COc1ccccc1N1C[C@@H]2C[C@@H](c3nccn3-c3cccc(C)c3)N3CCC[C@@]23C1=O | 29.3 |
| COC(=O)c1ccccc1NC(=O)CSc1nnnn1-c1ccc(OCc2ccccc2)cc1 | 24.3 |
| CCOc1cc(=O)n2c(c1C(=O)Nc1ccc(C)cc1Cl)CCCC2 | 71.6 |
| COC(=O)c1c(C)nc2n(CCN3CCOCC3)c3ccccc3n12 | 30.1 |

Block 4
SMILES: O=C(NC[C@@H]1[C@H]2CN(C(=O)OCc3cc(C(F)(F)F)cc(C(F)(F)F)c3)C[C@@H]12)c1ccc2[nH]nnc2c1
Effect on: cell-free assay
Technique: competition with immobilised ligand
Tested at: 1 µM
| target | remaining binding [%] |
| --- | --- |
| Proto-oncogene tyrosine-protein kinase ROS (ROS1, Homo sapiens, UniProt P08922) | 100 |
| Phosphorylase b kinase gamma catalytic chain, skeletal muscle/heart isoform (PHKG1, Homo sapiens, UniProt Q16816) | 92 |
| Protein kinase C eta type (PRKCH, Homo sapiens, UniProt P24723) | 100 |
| Calcium/calmodulin-dependent protein kinase kinase 1 (CAMKK1, Homo sapiens, UniProt Q8N5S9) | 91 |
| Serine/threonine-protein kinase OSR1 (OXSR1, Homo sapiens, UniProt O95747) | 85 |
| Receptor tyrosine-protein kinase erbB-2 (ERBB2, Homo sapiens, UniProt P04626) | 100 |
| MAP/microtubule affinity-regulating kinase 3 (MARK3, Homo sapiens, UniProt P27448) | 100 |
| Testis-specific serine/threonine-protein kinase 1 (TSSK1B, Homo sapiens, UniProt Q9BXA7) | 100 |
